Results gathered from unrelated publications.
Protocols differ between the studies behind these lines. “And” joins repeats or separate records; there may be more than shown. ± marks the error that the study gave.

`CCCC[C@@H]1NC(=O)[C@H](Cc2ccc(O)cc2)NC(=O)[C@@H]2CCCN2C(=O)[C@H](CC(=O)O)NC(=O)[C@H](C)NC(=O)[C@H](Cc2ccccc2)NC(=O)[C@@H]2CSCCC(=O)N3CN(CN(C3)C(=O)CCSC[C@@H](C(=O)N[C@@H](C)C(N)=O)NC1=O)C(=O)CCSC[C@H](NC(C)=O)C(=O)N[C@@H](CC(C)(C)C)C(=O)N1CCC[C@H]1C(=O)N[C@@H](CCC(=O)O)C(=O)N[C@H](CCCCNC(=O)CCc1cn(CCOCCOCCOCCN(CCOCCOCCOCCC(=O)N[C@H]3CSCCC(=O)N4CN5CN(C4)C(=O)CCSC[C@H](NC(=O)[C@@H](CC(=O)O)NC(=O)[C@H](Cc4cccc6ccccc46)NC(=O)[C@@H]4CCCN4C3=O)C(=O)N[C@@H](CCSC)C(=O)N[C@@H](CCCCNC(=N)N)C(=O)N[C@@H](CC(=O)O)C(=O)N[C@@H](Cc3c[nH]c4ccccc34)C(=O)N[C@@H](CO)C(=O)N[C@@H]([C@@H](C)O)C(=O)N3CCC[C@H]3C(=O)N3C[C@H](O)C[C@H]3C(=O)N[C@@H](Cc3c[nH]c4ccccc34)C(=O)N[C@H](C(N)=O)CSCCC5=O)CCOCCOCCOCCn3cc(CCC(=O)NCCCC[C@H]4NC(=O)[C@H](CCC(=O)O)NC(=O)[C@@H]5CCCN5C(=O)[C@H](CC(C)(C)C)NC(=O)[C@@H](NC(C)=O)CSCCC(=O)N5CN6CN(C5)C(=O)CCSC[C@H](NC(=O)[C@H](Cc5ccc(O)cc5)NC(=O)[C@@H]5CCCN5C4=O)C(=O)N[C@@H](Cc4ccccc4)C(=O)N[C@@H](C)C(=O)N[C@@H](CC(=O)O)C(=O)N4CCC[C@H]4C(=O)N[C@@H](Cc4ccc(O)cc4)C(=O)N[C@@H](CCCC)C(=O)N[C@H](C(=O)N[C@@H](C)C(N)=O)CSCCC6=O)nn3)nn1)C(=O)N1CCC[C@H]1C(=O)N[C@@H](Cc1ccc(O)cc1)C(=O)N2` has a fraction unbound of 0.21 (ultracentrifugation; rat plasma).
`[2H]C([2H])([2H])C1(C([2H])([2H])[2H])NC(=O)N(c2ccc(F)c(C(C)(F)F)c2)C1=O` has an NOAEL of at least 150 mg/kg (beagle dog, male and female; oral, single dose).
With `CC[C@H](C)[C@H](NC(=O)CNC(=O)[C@H](CCSC)NC(=O)[C@H](CCC(N)=O)NC(=O)[C@H](C)NC(=O)[C@H](CCC(N)=O)NC(=O)[C@@H](NC(=O)[C@H](CC(C)C)NC(=O)[C@H](C)NC(=O)[C@H](CO)NC(=O)[C@H](CCSC)NC(=O)[C@H](CCC(=O)O)NC(=O)[C@H](CC(C)C)NC(=O)[C@H](Cc1ccc(O)cc1)NC(=O)[C@H](CO)NC(=O)[C@H](CCC(=O)O)NC(=O)[C@H](CCC(N)=O)NC(=O)[C@H](CCCNC(=N)N)NC(=O)[C@H](CCCCN)NC(=O)[C@H](CC(=O)O)NC(=O)[C@H](CC(C)C)NC(=O)[C@H](CC(N)=O)NC(=O)[C@H](Cc1ccccc1)NC(=O)[C@H](CCC(=O)O)NC(=O)[C@H](CCCCN)NC(=O)[C@@H](NC(=O)[C@H](CC(C)C)NC(=O)[C@H](CCC(=O)O)NC(=O)[C@H](CCC(=O)O)NC(=O)[C@@H](NC(=O)[C@@H](NC(=O)[C@H](CCCNC(=N)N)NC(=O)[C@H](CCCCN)NC(=O)[C@H](C)NC(=O)[C@H](Cc1ccccc1)NC(=O)[C@H](CCC(=O)O)NC(=O)[C@H](CCC(=O)O)NC(=O)[C@H](CC(C)C)NC(=O)[C@@H](N)CO)C(C)C)C(C)C)C(C)C)[C@@H](C)CC)C(=O)N[C@@H](CO)C(=O)N[C@@H](CCC(=O)O)C(=O)N[C@@H](CCCNC(=N)N)C(=O)N[C@H](C(=O)N[C@H](C(=O)N[C@@H](CCC(=O)O)C(=O)N[C@H](C(=O)N[C@H](C(=O)N[C@@H](CC(C)C)C(=O)N[C@@H](CCCNC(=N)N)C(=O)N[C@@H](Cc1c[nH]cn1)C(=O)N[C@@H](C)C(=O)N[C@@H](C)C(=O)N[C@@H](CCC(N)=O)C(=O)N[C@H](C(=O)N[C@@H](CC(C)C)C(=O)N[C@@H](CCCCN)C(=O)O)[C@@H](C)O)C(C)C)[C@@H](C)CC)[C@@H](C)CC)[C@@H](C)CC` the clearance was 6.5 mL/min/kg (CD-1 ICR mouse, male, plasma; intravenous, 1 mg/kg).
For `CC(C)NCCCn1c(Sc2cc3c(cc2I)OCO3)nc2c(N)ncnc21`, the AUC was about 100 µM·h (human patients, plasma; up to 400 mg/m^2 single dose, 5 min to 72 h, dose escalation, mean).
`CSCC[C@H](NC(=O)[C@@H](NC(=O)[C@H](CC(C)C)NC(=O)[C@@H](NC(=O)[C@H](Cc1c[nH]cn1)NC(=O)CCCCCNC(=O)[C@H](CCCNC(=N)N)NC(=O)[C@H](CCCNC(=N)N)NC(=O)[C@H](CCCNC(=N)N)NC(=O)[C@H](CCC(N)=O)NC(=O)[C@H](CCCNC(=N)N)NC(=O)[C@H](CCCNC(=N)N)NC(=O)[C@H](CCCCN)NC(=O)[C@H](CCCCN)NC(=O)[C@H](CCCNC(=N)N)NC(=O)CNC(=O)[C@@H](N)Cc1ccc(O)cc1)C(C)C)C(C)C)C(=O)N[C@@H](CS)C(=O)N[C@@H](C)C(=O)N[C@H](C(N)=O)[C@@H](C)O` gave a Lymph of 78% and 91% and 73% (C57BL/6J mice; Alzet osmotic pump, 3 mg/kg, 8 weeks; relative to: leukocytes).
The total cholesterol of `CCCCCCCCCCCCCCCC(=O)N[C@@H](CCC(=O)NCCOCCOCCC(=O)NCCOCCOCCC(=O)NCCCC[C@H](NC(=O)[C@H](CC(=O)O)NC(=O)[C@H](CC(C)C)NC(=O)[C@H](Cc1ccc(O)cc1)NC(=O)[C@H](CCCCN)NC(=O)[C@H](CO)NC(=O)[C@H](Cc1ccc(O)cc1)NC(=O)[C@H](CC(=O)O)NC(=O)[C@H](CO)NC(=O)[C@@H](NC(=O)[C@H](Cc1ccccc1)NC(=O)[C@@H](NC(=O)CNC(=O)[C@H](CCC(N)=O)NC(=O)[C@@H](CO)NC(=O)[C@@H](N)Cc1c[nH]cn1)[C@@H](C)O)[C@@H](C)O)C(=O)N[C@@H](CCCNC(=N)N)C(=O)N[C@@H](CCCNC(=N)N)C(=O)N[C@@H](C)C(=O)N[C@@H](CCC(N)=O)C(=O)N[C@@H](CC(=O)O)C(=O)N[C@@H](Cc1ccccc1)C(=O)N[C@H](C(=O)N[C@@H](CCC(N)=O)C(=O)N[C@@H](Cc1c[nH]c2ccccc12)C(=O)N[C@@H](CC(C)C)C(=O)N[C@@H](CC(C)C)C(=O)N[C@@H](CC(N)=O)C(=O)N[C@H](C(=O)NCC(=O)NCC(=O)N1CCC[C@H]1C(=O)N[C@@H](CO)C(=O)N[C@@H](CO)C(=O)NCC(=O)N[C@@H](C)C(=O)N1CCC[C@H]1C(=O)N1CCC[C@H]1C(=O)N1CCC[C@H]1C(=O)N[C@@H](CO)C(N)=O)[C@@H](C)O)C(C)C)C(=O)O` is reported as 2.16 ± 0.8 mmol/L (rhesus monkey, female; subcutaneous, 300 µg/kg once daily, 28 days).
With `CCCC[C@H]1C(=O)N(C)[C@@H](CCCC)C(=O)N[C@@H](CCCNC(=O)CN2CCN(CC(=O)O)CCN(CC(=O)O)CCN(CC(=O)O)CC2)C(=O)N[C@H](C(=O)NCC(N)=O)CSCC(=O)N[C@@H](Cc2ccc(O)cc2)C(=O)N(C)[C@@H](C)C(=O)N[C@@H](CC(N)=O)C(=O)N2CCC[C@H]2C(=O)N[C@@H](Cc2c[nH]cn2)C(=O)N[C@@H](CC(C)C)C(=O)N(C)CC(=O)N[C@@H](Cc2c[nH]c3ccccc23)C(=O)N[C@@H](CO)C(=O)N[C@@H](Cc2c[nH]c3ccccc23)C(=O)N1C` [gallium-68 labelled] the radiochemical purity was 94.9% (radio-HPLC; fetal bovine serum; 120 min, 37 °C).
With `CC(C)[C@@H]1NC(=O)CNC(=O)[C@H](CC(N)=O)NC(=O)[C@H](CCCNC(=N)N)NC(=O)[C@H](Cc2ccc(O)cc2)NC(=O)[C@H](C(C)C)NC(=O)[C@@H](NC(=O)[C@@H](NC(=O)[C@H](CC(N)=O)NC(=O)[C@H](Cc2c[nH]c3ccccc23)NC(=O)[C@H](C)NC(=O)[C@H](Cc2ccccc2)NC(=O)CNC(=O)[C@H](CCCCN)NC(=O)[C@H](Cc2ccccc2)NC(=O)[C@H](Cc2ccccc2)NC(=O)[C@H](CCCCN)NC(=O)OCC2c3ccccc3-c3ccccc32)C(C)C)CSSC[C@@H](C(=O)N[C@@H](Cc2c[nH]cn2)C(=O)N[C@@H](CCCNC(=N)N)C(=O)N[C@@H](CCCNC(=N)N)C(=O)N[C@@H](C)C(=O)N[C@@H](CC(N)=O)C(N)=O)NC(=O)[C@H](C(C)C)NC(=O)[C@H](CCCNC(=N)N)NC1=O` the peptide remaining was 72.4% and 69.2% and 69.3% (HPLC; trypsin buffer; 0.50 h, 37 °C, added: trypsin 1 % w/v).
Under “plasma urea level”, `C=C/C=C/C[C@@H](C)[C@@H](O)[C@H]1C(=O)N[C@@H](CC)C(=O)N(C)CC(=O)N(C)[C@@H](CC(C)C)C(=O)N[C@@H](C(C)C)C(=O)N(C)[C@@H](CC(C)C)C(=O)N[C@@H](C)C(=O)N[C@H](C)C(=O)N(C)[C@@H](CC(C)C)C(=O)N(C)[C@@H](CC(C)C)C(=O)N(C)[C@@H](C(C)C)C(=O)N1C` is recorded as 5.2 ± 0.3 mmol/L (Wistar Kyoto rat, male, plasma; ip, 0.5 mg/kg/day, day 28, at sacrifice).
`O=C1NC2(CC2)COc2ncc(F)cc2[C@H]2COCCN2c2ccn3ncc1c3n2` — result for “organ-to-brain weight ratio”: 5.69 ± 0.75% (Sprague-Dawley rat, female, ovaries; oral, 2.5 mg/kg/day, 4 weeks, end of treatment).
For `CC[C@H](C)[C@H](NC(=O)[C@H](CCCCN)NC(=O)CNC(=O)[C@H](CC(C)C)NC(=O)[C@H](Cc1ccccc1)NC(=O)[C@H](CCCCN)NC(=O)[C@H](CO)NC(=O)[C@H](Cc1ccccc1)NC(=O)[C@H](Cc1c[nH]c2ccccc12)NC(=O)[C@H](CCC(N)=O)NC(=O)[C@@H](NC(=O)[C@H](Cc1ccccc1)NC(=O)CCCCCNC(=O)CN1CCN(CC(=O)O)CCN(CC(=O)O)CCN(CC(=O)O)CC1)C(C)C)C(=O)N[C@@H](CCC(=O)O)C(=O)N1CCC[C@H]1C(=O)N[C@@H](CC(=O)O)C(=O)N[C@H](C(=O)N[C@@H](CO)C(=O)N[C@@H](CCC(N)=O)C(=O)N[C@H](C(=O)N[C@@H](CCC(N)=O)C(=O)N[C@@H](CC(=O)O)C(=O)N1CCC[C@H]1C(=O)N[C@@H](CC(N)=O)C(=O)N[C@@H](CC(=O)O)C(=O)N[C@@H](CCC(N)=O)C(=O)N[C@@H](Cc1ccc(O)cc1)C(=O)N[C@@H](CCC(=O)O)C(=O)N1CCC[C@H]1C(=O)N[C@@H](Cc1ccccc1)C(=O)O)C(C)C)C(C)C` [copper-64 labelled], the tissue uptake was 2.62 ± 0.2 %ID/g (C57BL/6 mice, male, tumour-free, heart; 4 h).
`CC(=O)N[C@H](C(=O)N[C@@H](CCCC(=O)OC(C)(C)C)C(=O)N[C@@H](CCC1CCCCC1)C(=O)N[C@@H](CC(=O)O)C(=O)COC(=O)c1c(C)cccc1C)C(C)(C)C` has an ALT of 520 U/L and 468 U/L and 372 U/L and 426 U/L and 450 U/L and 446 U/L (C57BL/6N mouse, serum; concentration not given, added: LPS).
For `C/C(=N\OCCCN1CCCCC1)c1ccc(C(F)(F)F)cc1`, the plasma concentration was 280 ± 12.3 ng/mL (C57BL/6 mouse, plasma; intravenous, 5 mg/kg, 0.5 h).

Excerpt of the above:
With `CC[C@H](C)[C@H](NC(=O)CNC(=O)[C@H](CCSC)NC(=O)[C@H](CCC(N)=O)NC(=O)[C@H](C)NC(=O)[C@H](CCC(N)=O)NC(=O)[C@@H](NC(=O)[C@H](CC(C)C)NC(=O)[C@H](C)NC(=O)[C@H](CO)NC(=O)[C@H](CCSC)NC(=O)[C@H](CCC(=O)O)NC(=O)[C@H](CC(C)C)NC(=O)[C@H](Cc1ccc(O)cc1)NC(=O)[C@H](CO)NC(=O)[C@H](CCC(=O)O)NC(=O)[C@H](CCC(N)=O)NC(=O)[C@H](CCCNC(=N)N)NC(=O)[C@H](CCCCN)NC(=O)[C@H](CC(=O)O)NC(=O)[C@H](CC(C)C)NC(=O)[C@H](CC(N)=O)NC(=O)[C@H](Cc1ccccc1)NC(=O)[C@H](CCC(=O)O)NC(=O)[C@H](CCCCN)NC(=O)[C@@H](NC(=O)[C@H](CC(C)C)NC(=O)[C@H](CCC(=O)O)NC(=O)[C@H](CCC(=O)O)NC(=O)[C@@H](NC(=O)[C@@H](NC(=O)[C@H](CCCNC(=N)N)NC(=O)[C@H](CCCCN)NC(=O)[C@H](C)NC(=O)[C@H](Cc1ccccc1)NC(=O)[C@H](CCC(=O)O)NC(=O)[C@H](CCC(=O)O)NC(=O)[C@H](CC(C)C)NC(=O)[C@@H](N)CO)C(C)C)C(C)C)C(C)C)[C@@H](C)CC)C(=O)N[C@@H](CO)C(=O)N[C@@H](CCC(=O)O)C(=O)N[C@@H](CCCNC(=N)N)C(=O)N[C@H](C(=O)N[C@H](C(=O)N[C@@H](CCC(=O)O)C(=O)N[C@H](C(=O)N[C@H](C(=O)N[C@@H](CC(C)C)C(=O)N[C@@H](CCCNC(=N)N)C(=O)N[C@@H](Cc1c[nH]cn1)C(=O)N[C@@H](C)C(=O)N[C@@H](C)C(=O)N[C@@H](CCC(N)=O)C(=O)N[C@H](C(=O)N[C@@H](CC(C)C)C(=O)N[C@@H](CCCCN)C(=O)O)[C@@H](C)O)C(C)C)[C@@H](C)CC)[C@@H](C)CC)[C@@H](C)CC` the clearance was 6.5 mL/min/kg (CD-1 ICR mouse, male, plasma; intravenous, 1 mg/kg).
